# Measurements collected from several papers.
# Each line is one published result; not all experiments were run side by side. Numbers after ± are the reported error.
# Cell line: WI-38
# Method: MTT
SMILES,assay,conditions,quantity,result
Cc1ccc(C(=O)/C=C/c2cn(CC(=O)Nc3nc(-c4ccccc4)cs3)nn2)cc1,,"72 h, 100% viability, 10% FBS",safe concentration,1180 nM
CC1=[N+]2N=C(c3ccccc3)[O][Pd-2]2([Cl])[O+]=C2Oc3ccccc3C=C21 (stereo not drawn),cytotoxicity,24 h,IC50,57.2 ± 2.8 µM
CC(=NNC(=N)N)c1nnn(-c2ccc(C#CC3(O)CCCCC3)cc2)c1C,cytotoxicity,,IC50,70.2 µg/mL
O=C(Cn1cc(/C=C/C(=O)c2ccccc2)nn1)Nc1nc(-c2ccccc2)cs1,,"72 h, 100% viability, 10% FBS",safe concentration,449 nM
CSc1nc(Nc2ccc(/C(C)=N/NC(=O)c3ccc([N+](=O)[O-])cc3[N+](=O)[O-])cc2)c(C#N)c(-c2ccccc2)n1,cell growth or viability,,IC50,63.4 µM
COc1ccc(NC(=O)CCc2nc3cc(Cl)ccc3[nH]c2=O)cc1,cytotoxicity,,IC50,88.7 ± 3.9 µM
N=C(N)Nc1nc2ccccc2[nH]1,,"concentration not given, 24 h",cytotoxicity,not toxic
O=C(CCc1nc2cc(Cl)ccc2[nH]c1=O)Nc1ccc(O)cc1,cytotoxicity,,IC50,94.3 ± 3.5 µM
N=C(N)Nc1nc2ccccc2o1,,"concentration not given, 24 h",cytotoxicity,not toxic

# A few entries again:
SMILES,assay,conditions,quantity,result
N=C(N)Nc1nc2ccccc2o1,,"concentration not given, 24 h",cytotoxicity,not toxic
